Experimental data pooled from the literature.
Values joined by “and” are separate records of one study, mostly repeats; a detail may differ. Numbers after ± are the reported error.
Technique: steady-state kinetics
B1: PYCR2 R251C (Homo sapiens, UniProt Q96C36); chain MSVGFIGAGQLAYALARGFTAAGILSAHKIIASSPEMNLPTVSALRKMGVNLTRSNKETVKHSDVLFLAVKPHIIPFILDEIGADVQARHIVVSCAAGVTISSVEKKLMAFQPAPKVIRCMTNTPVVVQEGATVYATGTHALVEDGQLLEQLMSSVGFCTEVEEDLIDAVTGLSGSGPAYAFMALDALADGGVKMGLPRRLAIQLGAQALLGAAKMLLDSEQHPCQLKDNVCSPGGATIHALHFLESGGFCSLLINAVEASCIRTRELQSMADQEKISPAALKKTLLDRVKLESPTVSTLTPSSPGKLLTRSLALGGKKD
B2: enzyme (Acinetobacter baumannii, UniProt A0A5P1UDB1); chain MFIEQDIQLGYVPFPKSRAQQYRDEGCWKSQTHFQLLASLKDRFAQRVAVIQDDKQLTYQQLYDYAIHYGTYLKQQGIRETDFVLLQSPNVIEVFIVIFGLYAIGARPVFCLHGHGSYEIENIARQSRAVGFLKLCGSANESTATDVCEEFSKPNFKLWFRESIVSRSSIEASLPQLQGVAPAFNLRAQSESEDIAFLQLSGGTTGLPKLIPRTHADYIYSIEKSVDVAGLTQDTKQLVVLPVMHNFCMSSPGFLGVFYVGGTVVLSQLTHPRVCFELIEKYQIQQVSLVPAIATLWLNAESLKDYDLSSLQVVQVGGAKLLPSLAEQIIDTLQVKLQQVYGMAEGLVNFTHLDDSDQITIQTQGKKLSHLDEIRIADQDGNALPINAIGHIQTRGPYTINGYYNLPEINQRAFTQDGFYKTGDIGYLDENLNIVVTGREKEQINRSGEKITPSEIEEFILQYPSVKDVCVIGVSDDYLGERIKAIIIPKLDDSEINLKNIRKFLISKNIAHFKIPDEIEVVADFKYTHVGKVNRQKLG
B3: SCO6712 Y229F (Streptomyces coelicolor, UniProt Q9XAL8); chain AKGITARTAPAGGEVRHLKMYAEKLADGQMGYGFEKGKASVPGPLIEVNEGDTLHIEFTNTMDVRASLHVHGLDYEISSDGTAMNKSDVEPGGTRTYTWRTHKPGRRDDGTWRPGSAGYWHYHDHVVGTEHGTGGIRNGLYGPVIVRRKGDVLPDATHTIVFNDMTINNRKPHTGPDFEATVGDRVEIVMITHGEFYHTFHMHGHRWADNRTGILTGPDDPSRVIDNKITGPADSFGFQIIAGEGVGAGAWMYHCHVQSHSDMGMVGLFLVKKPDGTIPGYEPHEHGGATAKSGESGEPTGGAAAHEHEH
B4: enzyme S252E/S281E/S285E/S287E (Schizosaccharomyces pombe, UniProt P78804); chain MSTPYEPEFQQAYKEIVGSIESSKLFEVHPELKRVLPIISIPERVLEFRVTWEDDKGNCRVNTGYRVQFNSALGPYKGGLRFHPSVNLSILKFLGFEQIFKNALTGLPMGGGKGGSDFDPKGKSDNEIRRFSQAFMRQLFRYIGPQTDVPAGDIGVTGFVVMHMFGEYKRLRNEYSGVVTGKHMLTGGSNIRPEATGYGVVYYVKHMIEHRTKGAETLKGKRVAISGSGNVAQYAALKCIQEGAIVKSISDEKGVLIAKTAEGLVPEEIHEIMALKEKRAEIADEAELCKKHHYIAGARPWTNVGEIDIALPCATQNEVSGEEAAALIKQGCRYVAEGSNMGSSAEAVEVFEKSRASGEGCWLAPGKAANAGGVAVSGLEMAQNAQFSTWTHAEVDAKLAGIMQNIFEQSTDVASKYCDSGSNNIPSLVDGANIAGFLKVATAMQAVGDWW
B5: enzyme S446A (Methanosarcina mazei, UniProt Q8PVB1); chain MSEQRSVPLREHLLALKPCRHGGLIQETSETYGIPENEILDFSANFNPLGSPFDYPENGLNFEDIIKKSCGKLLEYPDNRYVEFREAAARFVGLGVTPQSIVPGNGSTEIVRLVVESVIEKGDKVLLPWPTFGEYEMQCRITGAEPVCPSQEEVNTLPDEVLEEAKILFICNPNNPTGKLRTREELKVLAERCREHKTLLYVDEAFIELSDPSQSVADLPAENNYVFVMRSLTKDFAIPGIRMGFGIAPPAMADILNTARLSWNLGAIANNTGIALLNIEGGIDSPYLKKAREMILKEGETLKAKIDRIRGFEAGEVNVNFILVDVSKFMLNSSELTARLAARGVLVRDCVSFHGLGKNYIRVAVRTEKENDRLIAAIGDVITEWGREQAKNELQHVIEKASEEGIGGRKTCEYYPCHFEGQNCTFCFCPFYPCENEKTGGKWIQASRGGRVWSCVDCHLVHKKEIAQKILDCLMHEGDTDELVKVAWKEVMEPIL
B6: enzyme (Ectocarpus siliculosus, UniProt D7FYY3); chain KTASLATVSSLGIDKATGITKPSTVHHNLPYPQVFEHETKNKEGESTANGTFCVSTGQFTGRSPKDKYFVQQAPSDKTLDWGKINVGVAPKVFENIYNKAVKHYNDNVDSMYVFDGYCGTSPKSRKNVRIITELAWQHHFAKNMFIRPETEAETAGFKPDFTIINACKVVNDDYKELGLNSEVAVVFNVEERKAVITGTWYGGEMKKGIFSMMNYWLPLDGVMAMHCSANKGKNGDTALFFGLSGTGKTTLSADPERYLIGDDEHGWDDDGIFNFEGGCYAKTINLSHENEPEIYDAIKRDALLENVVIKDNGEPDYTDVSKTENTRVSYPIYHIDNYEPSGMGGHPNSVIFLTCDAFGILPPVSRLSAGQAMYHFLSGYTAKVAGTERGVTEPTPNFSAGFGAAFLTLHPTMYADLLQKKLAKHGTQCYLINTGWTGGGYGVGKRMSIKATRACVDAVLDGSIGKTTFTPDPVFGFEVPAELPGVPAKVLNPREAWSDKKGYDATRTKLAGMFKDNFTKFVKPGVTDYTSYGPK
B7: enzyme (Oryza sativa, UniProt Q6ZGQ4); chain ASGPPFSCGAPSSAAFCNPRLPIEQRADDLVSRLTLEEKISQLGDQSPAVDRLGVPAYKWWSEALHGVSNAGRGIHLDGPLRAATSFPQVILTAASFNPHLWYRIGQVIGTEARAVYNNGQAEGLTFWAPNINVFRDPRWGRGQETPGEDPTVTGKYAAVFVRGVQGYALAGAINSTDLEASACCKHFTAYDLENWKGVTRYAFDAKVTAQDLADTYNPPFRSCVEDGGASGIMCSYNRVNGVPTCADYNLLSKTARGDWRFYGYITSDCDAVSIIHDVQGYAKTAEDAVADVLKAGMDVNCGSYVQEHGLSAIQQGKITEQDINRALHNLFAVRMRLGLFNGNPKYNRYGNIGPDQVCTQEHQNLALEAAQHGVVLLKNDANALPLSKSQVSSIAVIGHNANDATRLLGNYFGPPCISVTPLQVLQGYVKDTRFLAGCNSAACNVSSIGEAAQLASSVDYVVLFMGLDQDQEREEVDRLELSLPGMQENLINTVANAAKKPVILVLLCGGPVDVTFAKYNPKIGAILWAGYPGEAGGIAIAQVLFGEHNPGGRLPVTWYPKEFTSVPMTDMRMRADPSTGYPGRTYRFYRGNTVYKFGYGLSYSKYSHHFVANGTKLPSLSSIDGLKAMATAAAGTVSYDVEEIGPETCDKLKFPALVRVQNHGPMDGRHPVLLFLRWPNGAADGGRPASQLIGFQSLHLKSMQTVHVEFEVSPCKHFSRATEDGKKVIDHGSHFMMVGDDEFEMSFTP
B8: aspC A106G/A218G/F210I/I29V/I33V/I68L/I71L/N30D/N64T/S135A/T100S/V136I/V375I (Escherichia coli, UniProt P00509); chain MFENITAAPADPILGLADLFRADERPGKVDLGVGVYKDETGKTPVLTSVKKAEQYLLENETTKTYLGLDGLPEFGRCTQELLFGKGSALINDKRARTAQSPGGTGGLRVAADFLAKNTSVKRVWVSNPSWPNHKAIFNSAGLEVREYAYYDAENHTLDFDALINSLNEAQAGDVVLFHGCCHNPTGIDPTLEQWQTLAQLSVEKGWLPLIDFAYQGFGRGLEEDAEGLRAFAAMHKELIVASSYSKNFGLYNERVGACTLVAADSETVDRAFSQMKAAIRANYSNPPAHGASVVATILSNDALRAIWEQELTDMRQRIQRMRQLFVNTLQEKGANRDFSFIIKQNGMFSFSGLTKEQVLRLREEFGVYAVASGRINVAGMTPDNMAPLCEAIVAVL
B9: enzyme H130A (Salinispora arenicola, UniProt A8M783); chain MASTPWISFTTDYGLADGFVAACHGVLARLAPTARVIDVTHLVPPGDVRRGAAVLAQTVPYLPAAVHVAVVDPGVGTARRAIALTAGNGLLVGPDNGLLLDAATALGGVDAAVELTNPDWLGARMSATFAGRDVFAPVAARLALGAPLADAGPAVEPGALVRLPTPLVQPETDGFTAEVLTVDHFGNVQLAATGALLESLPRSLRVAHRPAVHARTFDDAPPGGLLVHVDSAGLVAVAVNGGRAADLLAVTPGDQLRVTAG
Chain of UniProt Q9C969 (whole entry, looked up): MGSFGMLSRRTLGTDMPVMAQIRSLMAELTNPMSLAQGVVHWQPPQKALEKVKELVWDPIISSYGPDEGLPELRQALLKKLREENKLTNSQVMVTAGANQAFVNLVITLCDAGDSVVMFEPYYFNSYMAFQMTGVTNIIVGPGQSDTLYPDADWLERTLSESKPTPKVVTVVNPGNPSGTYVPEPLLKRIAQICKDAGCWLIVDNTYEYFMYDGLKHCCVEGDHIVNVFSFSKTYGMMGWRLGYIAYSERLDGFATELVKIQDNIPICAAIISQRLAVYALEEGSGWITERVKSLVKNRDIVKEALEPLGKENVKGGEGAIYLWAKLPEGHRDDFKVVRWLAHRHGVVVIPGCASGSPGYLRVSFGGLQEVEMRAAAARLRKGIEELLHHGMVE
Chain of UniProt P00327 (whole entry, looked up): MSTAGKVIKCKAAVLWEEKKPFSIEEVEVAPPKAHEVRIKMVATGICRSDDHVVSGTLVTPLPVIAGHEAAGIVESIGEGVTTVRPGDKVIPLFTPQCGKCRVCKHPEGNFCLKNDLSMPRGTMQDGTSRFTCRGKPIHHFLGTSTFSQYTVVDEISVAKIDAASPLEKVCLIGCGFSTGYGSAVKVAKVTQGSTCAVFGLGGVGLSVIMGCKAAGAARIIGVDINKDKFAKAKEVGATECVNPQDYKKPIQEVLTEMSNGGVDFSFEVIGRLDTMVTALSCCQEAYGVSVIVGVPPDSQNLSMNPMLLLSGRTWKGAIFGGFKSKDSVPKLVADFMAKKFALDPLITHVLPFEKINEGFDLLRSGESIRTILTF
Chain of UniProt P09546 (whole entry, looked up): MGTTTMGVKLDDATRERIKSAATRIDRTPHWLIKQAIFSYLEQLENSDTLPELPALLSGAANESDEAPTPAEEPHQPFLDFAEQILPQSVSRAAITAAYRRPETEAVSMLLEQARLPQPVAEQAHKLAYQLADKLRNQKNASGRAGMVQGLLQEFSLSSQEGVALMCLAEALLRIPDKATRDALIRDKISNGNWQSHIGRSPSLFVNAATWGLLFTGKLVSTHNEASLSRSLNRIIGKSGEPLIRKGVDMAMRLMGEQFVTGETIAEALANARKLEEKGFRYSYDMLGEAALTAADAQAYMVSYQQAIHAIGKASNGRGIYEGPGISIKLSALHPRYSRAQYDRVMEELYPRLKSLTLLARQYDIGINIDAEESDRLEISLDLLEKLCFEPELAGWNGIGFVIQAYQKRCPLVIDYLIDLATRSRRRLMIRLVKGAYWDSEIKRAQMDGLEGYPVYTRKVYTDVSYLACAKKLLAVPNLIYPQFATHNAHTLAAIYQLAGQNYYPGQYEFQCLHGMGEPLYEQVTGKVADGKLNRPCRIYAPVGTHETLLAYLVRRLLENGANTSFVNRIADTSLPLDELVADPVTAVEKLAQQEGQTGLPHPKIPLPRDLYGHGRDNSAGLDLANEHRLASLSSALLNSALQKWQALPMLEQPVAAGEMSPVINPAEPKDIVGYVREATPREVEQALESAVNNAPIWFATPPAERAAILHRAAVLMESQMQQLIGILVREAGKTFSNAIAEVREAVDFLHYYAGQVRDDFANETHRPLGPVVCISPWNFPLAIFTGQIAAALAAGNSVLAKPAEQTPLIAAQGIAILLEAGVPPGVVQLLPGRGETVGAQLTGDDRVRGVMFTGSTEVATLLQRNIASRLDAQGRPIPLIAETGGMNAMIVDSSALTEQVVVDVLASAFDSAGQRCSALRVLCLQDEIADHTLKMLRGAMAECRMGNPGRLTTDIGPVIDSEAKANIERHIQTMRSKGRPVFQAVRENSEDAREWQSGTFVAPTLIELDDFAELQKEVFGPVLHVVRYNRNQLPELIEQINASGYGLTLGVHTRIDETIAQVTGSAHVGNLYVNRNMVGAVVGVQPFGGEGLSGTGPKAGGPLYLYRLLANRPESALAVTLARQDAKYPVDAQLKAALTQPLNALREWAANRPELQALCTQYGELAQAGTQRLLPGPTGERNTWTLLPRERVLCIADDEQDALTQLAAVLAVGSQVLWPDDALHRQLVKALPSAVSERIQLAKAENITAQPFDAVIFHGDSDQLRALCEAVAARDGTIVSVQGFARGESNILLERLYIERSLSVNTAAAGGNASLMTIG
Chain of UniProt P26208 (whole entry, looked up): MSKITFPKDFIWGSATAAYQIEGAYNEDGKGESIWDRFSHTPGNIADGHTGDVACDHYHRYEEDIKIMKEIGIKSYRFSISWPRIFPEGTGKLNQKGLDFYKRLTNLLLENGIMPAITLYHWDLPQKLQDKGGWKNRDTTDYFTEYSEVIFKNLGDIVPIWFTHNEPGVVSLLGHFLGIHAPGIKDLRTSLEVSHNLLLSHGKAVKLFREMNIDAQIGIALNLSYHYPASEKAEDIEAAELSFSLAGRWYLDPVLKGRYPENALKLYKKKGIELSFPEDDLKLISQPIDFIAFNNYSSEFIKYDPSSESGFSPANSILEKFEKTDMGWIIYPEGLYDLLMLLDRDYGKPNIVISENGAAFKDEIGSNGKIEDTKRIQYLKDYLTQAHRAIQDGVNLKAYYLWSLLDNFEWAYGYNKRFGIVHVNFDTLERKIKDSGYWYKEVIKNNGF
Chain of UniProt Q93UV0 (whole entry, looked up): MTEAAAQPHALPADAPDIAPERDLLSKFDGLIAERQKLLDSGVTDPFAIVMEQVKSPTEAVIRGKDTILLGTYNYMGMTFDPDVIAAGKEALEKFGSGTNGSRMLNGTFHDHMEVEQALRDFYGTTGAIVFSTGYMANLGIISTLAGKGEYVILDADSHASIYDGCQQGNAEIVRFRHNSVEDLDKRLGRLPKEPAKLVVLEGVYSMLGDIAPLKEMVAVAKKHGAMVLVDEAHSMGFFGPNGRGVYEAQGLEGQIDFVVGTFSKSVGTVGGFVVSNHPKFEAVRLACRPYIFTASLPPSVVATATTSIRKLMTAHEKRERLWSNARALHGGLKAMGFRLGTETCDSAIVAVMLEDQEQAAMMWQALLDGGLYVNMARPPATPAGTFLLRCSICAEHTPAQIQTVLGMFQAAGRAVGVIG
Chain of UniProt P27707 (whole entry, looked up): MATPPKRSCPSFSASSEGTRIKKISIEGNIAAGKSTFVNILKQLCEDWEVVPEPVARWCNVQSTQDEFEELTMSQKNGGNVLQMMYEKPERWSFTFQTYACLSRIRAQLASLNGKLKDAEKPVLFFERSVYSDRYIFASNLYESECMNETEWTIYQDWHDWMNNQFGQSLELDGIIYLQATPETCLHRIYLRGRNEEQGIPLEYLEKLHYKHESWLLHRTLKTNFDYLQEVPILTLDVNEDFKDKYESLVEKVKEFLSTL
Chain of UniProt P07004 (whole entry, looked up): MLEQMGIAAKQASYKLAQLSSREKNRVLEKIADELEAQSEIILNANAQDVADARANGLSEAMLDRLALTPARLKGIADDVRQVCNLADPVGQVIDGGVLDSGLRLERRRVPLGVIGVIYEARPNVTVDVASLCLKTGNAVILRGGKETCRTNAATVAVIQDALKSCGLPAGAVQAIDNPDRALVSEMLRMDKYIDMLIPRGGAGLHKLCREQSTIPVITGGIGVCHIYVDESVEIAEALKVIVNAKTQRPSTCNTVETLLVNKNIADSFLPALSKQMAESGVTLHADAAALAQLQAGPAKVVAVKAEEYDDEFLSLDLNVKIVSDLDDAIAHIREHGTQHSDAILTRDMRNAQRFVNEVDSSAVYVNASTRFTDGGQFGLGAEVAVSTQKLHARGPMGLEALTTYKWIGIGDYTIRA

B1 (PYCR2 R251C)
kcat/Km (O=C(O)[C@@H]1CCC=N1; pH 7.5, 37 °C, apparent, added: NADH 500 µM): 2400 ± 600 M⁻¹ s⁻¹

B2 (enzyme)
kcat/Km (O=C(O)c1ccccc1O; pH 7.5, 37 °C, apparent): 319 M⁻¹ s⁻¹

gdh N192S/N97F (Bacillus subtilis)
kcat/Km (NC(=O)c1ccc[n+]([C@@H]2O[C@H](COP(=O)(O)OP(=O)(O)OC[C@H]3O[C@@H](n4cnc5c(N)ncnc54)[C@H](O)[C@@H]3O)[C@@H](O)[C@H]2O)c1; pH 7, 55 °C): 72500 ± 2670 M⁻¹ s⁻¹

HNL C81L/E79H/G176S/H103V/K236M/N104A/T11G (Hevea brasiliensis)
kcat/Km (CC(=O)Oc1ccc([N+](=O)[O-])cc1; pH 7.2, 21 °C): 333 M⁻¹ s⁻¹

putA (Escherichia coli, UniProt P09546)
kcat/Km (CC1=C(C)C(=O)C(C)=C(C)C1=O; pH 7.4, 20 °C, added: proline 200 mM): 8400 ± 1700 M⁻¹ s⁻¹

enzyme (Arabidopsis thaliana, UniProt Q9C969)
kcat/Km (O=C(O)C(=O)Cc1c[nH]c2ccccc12): 2500 M⁻¹ s⁻¹ and 4170 M⁻¹ s⁻¹

B3 (SCO6712 Y229F)
kcat/Km (CCn1c(=NN=c2sc3cc(S(=O)(=O)O)ccc3n2CC)sc2cc(S(=O)(=O)O)ccc21; pH 7, 37 °C, NaCl 150 mM, added: O2 cosubstrate): 850 ± 40 M⁻¹ s⁻¹

B4 (enzyme S252E/S281E/S285E/S287E)
kcat/Km (NC(=O)c1ccc[n+]([C@@H]2O[C@H](COP(=O)(O)OP(=O)(O)OC[C@H]3O[C@@H](n4cnc5c(N)ncnc54)[C@H](OP(=O)(O)O)[C@@H]3O)[C@@H](O)[C@H]2O)c1; pH 7, 30 °C, apparent): 5000 ± 400 M⁻¹ s⁻¹

DCK (Homo sapiens, UniProt P27707)
kcat/Km (Nc1ccn([C@@H]2O[C@H](CO)[C@@H](O)C2(F)F)c(=O)n1; pH 7.6, per site): 8300 M⁻¹ s⁻¹

proA (Escherichia coli, UniProt P07004)
kcat/Km (N[C@@H](CCC=O)C(=O)O; pH 7.6, apparent, added: 1 mM NADP+): 53000 ± 12000 M⁻¹ s⁻¹

B5 (enzyme S446A)
kcat/Km (Nc1ncnc2c1ncn2[C@@H]1O[C@H](COP(=O)(O)OP(=O)(O)OP(=O)(O)O)[C@@H](O)[C@H]1O; pH 8.5, 25 °C, apparent, anoxic, added: L-Thr 10 mM): 68 ± 19 M⁻¹ s⁻¹

enzyme (UniProt A0A4R3LQ44)
kcat/Km (O=C(O)[C@H](O)[C@@H](O)[C@@H](O)CO; pH 7.5, 50 °C): 4400 ± 800 M⁻¹ s⁻¹

acsA I222V/L233M (Pseudomonas chlororaphis)
kcat/Km (O=C(O)CCC(F)(F)F; pH 7): 41.7 ± 8.33 M⁻¹ s⁻¹

B6 (enzyme)
kcat/Km (C=C(OP(=O)(O)O)C(=O)O; pH 5.5, 25 °C, added: 2 mM ADP): 27000 M⁻¹ s⁻¹

bglA (Acetivibrio thermocellus, UniProt P26208)
kcat/Km (O=[N+]([O-])c1ccc(O[C@@H]2OC[C@H](O)[C@H](O)[C@H]2O)cc1; pH 5.5, 60 °C): 3330 ± 240 M⁻¹ s⁻¹

B7 (enzyme)
kcat/Km (O=[N+]([O-])c1ccc(O[C@@H]2OC[C@@H](O)[C@H](O)[C@H]2O)cc1; pH 4, 40 °C, apparent): 19000 M⁻¹ s⁻¹

spt (Sphingomonas paucimobilis, UniProt Q93UV0)
kcat/Km (CCCCCCCCCCCCCC(=O)SCCNC(=O)CCNC(=O)[C@H](O)C(C)(C)COP(=O)(O)OP(=O)(O)OC[C@H]1O[C@@H](n2cnc3c(N)ncnc32)[C@H](O)[C@@H]1OP(=O)(O)O; added: PLP): 9500 M⁻¹ s⁻¹

enzyme (Equus caballus, UniProt P00327)
kcat/Km (NC(=O)c1ccc[n+]([C@@H]2O[C@H](COP(=O)(O)OP(=O)(O)OC[C@H]3O[C@@H](n4cnc5c(N)ncnc54)[C@H](OP(=O)(O)O)[C@@H]3O)[C@@H](O)[C@H]2O)c1; pH 7, 30 °C, cofactor varied): 4 M⁻¹ s⁻¹

B8
kcat/Km (O=C(O)C(=O)Cc1ccccc1; pH 7.5, 25 °C, added: PLP 20 µM, ammonium acetate 10 mM): 470000 M⁻¹ s⁻¹

B9 (enzyme H130A)
kcat/Km (C[S+](CC[C@H](N)C(=O)O)C[C@H]1O[C@@H](n2cnc3c(N)ncnc32)[C@H](O)[C@@H]1O; pH 7.9, 37 °C, apparent, added: 1-200 µM SAM): 1900 M⁻¹ s⁻¹

Repeated from above:
B3 (SCO6712 Y229F)
kcat/Km (CCn1c(=NN=c2sc3cc(S(=O)(=O)O)ccc3n2CC)sc2cc(S(=O)(=O)O)ccc21; pH 7, 37 °C, NaCl 150 mM, added: O2 cosubstrate): 850 ± 40 M⁻¹ s⁻¹

B4 (enzyme S252E/S281E/S285E/S287E)
kcat/Km (NC(=O)c1ccc[n+]([C@@H]2O[C@H](COP(=O)(O)OP(=O)(O)OC[C@H]3O[C@@H](n4cnc5c(N)ncnc54)[C@H](OP(=O)(O)O)[C@@H]3O)[C@@H](O)[C@H]2O)c1; pH 7, 30 °C, apparent): 5000 ± 400 M⁻¹ s⁻¹

DCK (Homo sapiens, UniProt P27707)
kcat/Km (Nc1ccn([C@@H]2O[C@H](CO)[C@@H](O)C2(F)F)c(=O)n1; pH 7.6, per site): 8300 M⁻¹ s⁻¹
